Experimental data pooled from the literature.
A part holds a random share of what one study measured. “And” joins repeats or separate records; there may be more than shown.

Study 1
Target: Sal-like protein 4, full length isoform A (SALL4, Homo sapiens, UniProt Q9UJQ4, residues 1-1053)
Sequence of UniProt Q9UJQ4 (whole entry, looked up): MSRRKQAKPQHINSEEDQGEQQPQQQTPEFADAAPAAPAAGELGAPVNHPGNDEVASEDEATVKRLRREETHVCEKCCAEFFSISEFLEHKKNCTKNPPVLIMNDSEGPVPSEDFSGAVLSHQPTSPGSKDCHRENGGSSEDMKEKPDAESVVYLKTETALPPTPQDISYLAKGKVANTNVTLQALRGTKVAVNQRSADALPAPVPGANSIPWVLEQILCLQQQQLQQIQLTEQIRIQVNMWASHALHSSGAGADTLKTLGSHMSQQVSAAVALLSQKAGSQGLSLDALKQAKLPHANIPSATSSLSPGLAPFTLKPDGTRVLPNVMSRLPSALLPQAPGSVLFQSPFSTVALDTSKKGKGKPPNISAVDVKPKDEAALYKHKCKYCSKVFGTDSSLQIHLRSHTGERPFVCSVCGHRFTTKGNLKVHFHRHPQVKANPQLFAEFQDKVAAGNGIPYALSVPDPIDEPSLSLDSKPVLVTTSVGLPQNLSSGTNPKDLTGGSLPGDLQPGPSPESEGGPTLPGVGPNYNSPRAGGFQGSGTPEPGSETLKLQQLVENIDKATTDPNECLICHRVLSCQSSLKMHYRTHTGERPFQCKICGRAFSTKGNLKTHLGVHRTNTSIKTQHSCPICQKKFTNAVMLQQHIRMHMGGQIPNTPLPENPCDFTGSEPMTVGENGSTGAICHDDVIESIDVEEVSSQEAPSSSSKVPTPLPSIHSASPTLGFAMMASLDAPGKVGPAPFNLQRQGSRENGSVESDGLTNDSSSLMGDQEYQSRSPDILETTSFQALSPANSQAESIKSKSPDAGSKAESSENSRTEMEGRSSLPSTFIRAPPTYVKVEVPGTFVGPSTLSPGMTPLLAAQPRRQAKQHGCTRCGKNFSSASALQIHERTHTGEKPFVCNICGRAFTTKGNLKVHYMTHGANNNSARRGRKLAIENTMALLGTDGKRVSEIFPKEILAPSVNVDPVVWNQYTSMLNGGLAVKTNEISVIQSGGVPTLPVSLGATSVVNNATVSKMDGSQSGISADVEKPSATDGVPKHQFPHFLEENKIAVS
Method: universal PBM
Molecule type: double-stranded DNA, one strand shown
Sample: in vitro
Tested at: 600 nM
Setting: 8-mer, flanks averaged, mean of replicates
Direction: higher = stronger binding
For `AATTAGTG`, the E-score was 0.239.
The E-score of `CTGGCGGC` is reported as -0.268.
`CTCTCCAG` gave an E-score of -0.285.
`CTAGGGGA` has an E-score of -0.29.
`GTGAGCAA` gave an E-score of -0.127.
For `ATGCGCAC`, the E-score was -0.0405.
`TAAACAAA` has an E-score of 0.267.
`CGGGACGA` has an E-score of -0.195.

Study 2
Target: Centromere-binding protein 1, full length, His-tagged (CBF1, Saccharomyces cerevisiae, UniProt P17106, residues 1-351)
Sequence of UniProt P17106 (whole entry, looked up): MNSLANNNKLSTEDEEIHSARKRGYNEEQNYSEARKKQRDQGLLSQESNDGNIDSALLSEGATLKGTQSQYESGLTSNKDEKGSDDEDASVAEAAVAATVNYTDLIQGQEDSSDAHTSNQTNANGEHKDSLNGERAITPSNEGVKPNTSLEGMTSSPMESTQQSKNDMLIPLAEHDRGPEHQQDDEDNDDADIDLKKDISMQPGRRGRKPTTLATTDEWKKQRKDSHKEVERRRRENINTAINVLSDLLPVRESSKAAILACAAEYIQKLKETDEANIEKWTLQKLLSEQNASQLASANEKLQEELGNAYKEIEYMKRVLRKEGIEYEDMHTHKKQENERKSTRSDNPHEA
Method: competition protein-binding microarray
Molecule type: double-stranded DNA, one strand shown
Sample: in vitro
Tested at: 2 µM
Setting: whole 60-bp probe, lowest competitor level
Together with: Pho4 competitor, 0.05 µM
Direction: higher = stronger binding
The fluorescence intensity of `CCCATCATATTAACGATCGTGCCAGCCGGATTGAACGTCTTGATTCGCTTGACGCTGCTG` is reported as 71.2 a.u.
The fluorescence intensity of `AATCGTTAACACCGTCACCTGTCATTGTGCAGAACTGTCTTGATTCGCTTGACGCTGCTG` is reported as 130 a.u.
`TGCTCTATGATGTTGCACATGCACTTGTTTTGTTGTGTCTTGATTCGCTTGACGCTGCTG` gave a fluorescence intensity of 155 a.u.
With `CGATATAGAACAAAGCACGTGTAATTATTCAACTTTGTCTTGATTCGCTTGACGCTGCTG` the fluorescence intensity was 1750 a.u.
`AAAGTTGGGTGTCTGCGTGTGTGTATGTTTCCAATTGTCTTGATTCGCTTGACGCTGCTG` has a fluorescence intensity of 71.3 a.u.
`GTAACTGTTGTATTGAACGTGGACCAGGACAAGAAAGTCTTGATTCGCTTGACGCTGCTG` gave a fluorescence intensity of 69.1 a.u.
`GAACAGGATCTCCGCCATGTGAATATTTATGCATGAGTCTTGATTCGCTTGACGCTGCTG` has a fluorescence intensity of 117 a.u.
The fluorescence intensity of `CCATCAATTTGGCTACACGTGTTGGTCTAGAACATGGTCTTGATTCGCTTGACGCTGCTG` is reported as 1440 a.u.

Study 3
Target: Ras GTPase-activating protein-binding protein 1, full length (G3BP1, Homo sapiens, UniProt Q13283)
Sequence of UniProt Q13283 (whole entry, looked up): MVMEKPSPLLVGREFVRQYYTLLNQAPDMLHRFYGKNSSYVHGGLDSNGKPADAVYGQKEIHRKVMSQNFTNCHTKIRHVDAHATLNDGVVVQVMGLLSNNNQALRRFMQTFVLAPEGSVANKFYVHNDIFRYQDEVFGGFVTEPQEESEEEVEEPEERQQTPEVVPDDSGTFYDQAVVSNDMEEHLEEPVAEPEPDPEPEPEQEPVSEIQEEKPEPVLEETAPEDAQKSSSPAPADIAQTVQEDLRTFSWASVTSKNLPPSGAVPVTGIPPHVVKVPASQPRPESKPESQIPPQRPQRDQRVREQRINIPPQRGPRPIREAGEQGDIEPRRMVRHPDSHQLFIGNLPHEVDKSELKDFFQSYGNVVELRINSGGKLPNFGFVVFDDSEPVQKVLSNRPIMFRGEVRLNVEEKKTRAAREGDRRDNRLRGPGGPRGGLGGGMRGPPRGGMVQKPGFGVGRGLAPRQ
Method: RNA Bind-n-Seq
Molecule type: RNA
Sample: in vitro
Tested at: 200 nM
Setting: whole 134-nt RNA, ends assumed
Together with: 150 mM KCl
Reference: input library
Direction: higher = stronger binding
`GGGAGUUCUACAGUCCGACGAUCUCCUGUGCUACACAUCGUAUGUACCGAAUCGGGGAAAAAAGGAAAAAAGGGAAAAAAGGGAAAGUAUUAUGUUACGCCGUUCGGAUCUGCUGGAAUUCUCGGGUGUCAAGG` has a log2 enrichment of -0.189.
With `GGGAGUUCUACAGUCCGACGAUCAGUCCUGUGCUACACAUCGUAUGUACCGAAUCGGGUUUUUGGUUUUUGGGUUUUUGGGAAAGUAUUAUGUUACGCCGUUCGGAUCUGCACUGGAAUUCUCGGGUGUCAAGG` the log2 enrichment was -1.05.
`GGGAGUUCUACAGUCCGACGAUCUCCUGUGCUACACAUCGUAUGUACCGAAUCAAACCCCCCCAAAUUUUUAAACCCCCAAAAAAGUAUUAUGUUACGCCGUUCGGAUCUGCAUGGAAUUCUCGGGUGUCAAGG` has a log2 enrichment of 0.00412.
`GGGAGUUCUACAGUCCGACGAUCCAAGUCCUGUGCUACACAUCGUAUGUACCGAAUCGGUUUGGGGUUUGGUUUGGGGAAAGUAUUAUGUUACGCCGUUCGGAUCUGCACUUCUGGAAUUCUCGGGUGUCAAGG` gave a log2 enrichment of -0.321.
With `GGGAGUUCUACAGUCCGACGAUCACCAUGCAGGUGGGCAUCUUUGGGAAGUGGGGCAAGGGGGGGAUAGGGAGGGGAAAAACACUUUGGGAACAGGUGGUCCCAGGUCGUUUCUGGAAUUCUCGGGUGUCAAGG` the log2 enrichment was 1.17.
`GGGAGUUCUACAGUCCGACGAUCAAGUCCUGUGCUACACAUCGUAUGUACCGAAUCGGCCCCGGGGCCCCGGGGCCCCGGAAAGUAUUAUGUUACGCCGUUCGGAUCUGCACUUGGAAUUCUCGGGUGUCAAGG` gave a log2 enrichment of 0.374.
`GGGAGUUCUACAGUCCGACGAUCCAAGUCCUGUGCUACACAUCGUAUGUACCGAAUCGGUUUGGAAAGGAAAAAAAGGAAAGUAUUAUGUUACGCCGUUCGGAUCUGCACUUCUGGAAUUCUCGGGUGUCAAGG` gave a log2 enrichment of -0.697.
The log2 enrichment of `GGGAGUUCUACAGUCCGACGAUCUCCUGUGCUACACAUCGUAUGUACCGAAUCGGGGAAAGGGGAAAAAAAGGGGUUUGGGGAAAGUAUUAUGUUACGCCGUUCGGAUCUGCAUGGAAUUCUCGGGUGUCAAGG` is reported as 0.721.
`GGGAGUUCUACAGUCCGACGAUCUGGCCCUGGUGGCAUGCGGAGAGGAAGAGGUGGCCUCAUGGAUCGUGGUGGUCCCGGUGGAAUGUUCAGAGGUGGCCGUGGUGGAGACAGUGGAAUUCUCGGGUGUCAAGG` gave a log2 enrichment of 0.336.

Single results of other studies
For `PhoQ, residues 284 288 289 292 302 303 SSYNSA`, the fold induction was 22.9 and 15.1 (PhoP, residues 12 14 15 18 19 LWHSL (Escherichia coli, UniProt P23836); Sort-seq, measured: YFP reporter; E. coli; PhoQ-PhoP variant library, together with: 10 µM Mg2+; reference: high Mg2+ state, higher = stronger signaling).
